Published values of several laboratories.
Protocols differ between the studies behind these lines.
Cell line: SW-620

CCN(C(=O)c1cc(F)ccc1Oc1nncnc1N1CCC2(C1)CN([C@H](CCCN(C)CCOC)C(C)C)C2)C(C)C  GI50 (cell growth or viability; 7 days): > 10000 nM
[BH3-][P+]1(c2ccccc2)CCC(=O)CC1  selectivity index (MTT; 72 h; relative to: IC50 HaCaT over IC50 SW-620): 1
C/C(=N\Nc1ncnc2sc3c(c12)CCCC3)c1cc(O)ccc1O  colony formation (7 d): decreased
Cc1ccc([N+](=O)[O-])cc1S(=O)(=O)N(C)/N=C/c1cnc2ccc(Br)cn12  IC50 (cell viability, MTS): 74 nM
CN(C)CCN1CCN(c2ccc3nc(-c4ccc5nc(-c6ccc(C(F)(F)F)cc6)[nH]c5c4)[nH]c3c2)CC1  growth percent (SRB; 10 µM, 48 h): 27%
CCCC(CCC)C(=O)OCc1cn(-c2cc3ccccc3oc2=O)nn1  growth percentage (NCI60 single-dose screen; 10 µM): 94.1%
CC(C)c1ccc(N(C)c2ccc3c(c2)OCC[C@H]3CNc2cnccc2C(=O)O)cc1  IC50 (cell viability, CellTiter-Glo; 7 days): 29.3 nM
CNS(=O)(=O)Nc1nccc(Cc2c(C)c3ccc(Oc4ncccc4F)cc3oc2=O)c1F  IC50 (cell viability; 7 days): 1.64 nM
C1=[N+]2CCCC[N+]3=Cc4ccc5[n]4[Au-]23[n]2c1ccc2-c1nc2ccccc2nc1-5.F[P-](F)(F)(F)(F)F  TGI (NCI60 five-dose screen): 5.31 -log M
[BH3-][P+]1(c2ccccc2)CCCCC1  necrotic cells (annexin V/PI flow cytometry; IC50, 72 h): 0.35%
CCOc1cncc(-c2ccc(NC(=O)C3(c4ccnc(NS(=O)(=O)C5CC5)n4)CCOCC3)nc2)n1  IC50 (cell growth or viability, ATP luminescence; 72 h): 122 nM
O=C1CCP(=O)(c2ccccc2)CC1  IC50 (cell growth or viability, MTT; 72 h): > 100000 nM
O=C(Nc1nnc2c1c(-c1ccc(Cl)cc1)nc1sc(=Cc3ccco3)c(=O)n12)c1ccccc1 (mixture of isomers)  cell growth (SRB; 10 µM, NCI60 single-dose screen, colon cancer; relative to: untreated): 48.9%

Some of these lines once more:
O=C1CCP(=O)(c2ccccc2)CC1  IC50 (cell growth or viability, MTT; 72 h): > 100000 nM
O=C(Nc1nnc2c1c(-c1ccc(Cl)cc1)nc1sc(=Cc3ccco3)c(=O)n12)c1ccccc1 (mixture of isomers)  cell growth (SRB; 10 µM, NCI60 single-dose screen, colon cancer; relative to: untreated): 48.9%
